Experimental data gathered from unrelated publications.
Several values in a cell are separate wells, animals, samples, runs or records. Numbers after ± are the reported error.

Structure (SMILES)	tested on	test	system	conditions	measurement	result
Cn1c(=O)c(-c2ccccc2Cl)cc2cnc(Nc3cccc(S(C)(=O)=O)c3)nc21	Cryptosporidium parvum	parasite growth	HCT-8, UGA1 nanoluciferase	48 h	EC50	65 ± 5 nM
COc1cc(Nc2ncnc3ccc(-c4ccc(S(=O)(=O)N5CCOCC5)cc4)cc23)ccc1OCc1cccc(F)c1	Plasmodium falciparum	parasite growth, SYBR Green	D6	blood stage	EC50	440 nM
O=C1NC2(CC2)COc2ncc(F)cc2[C@H]2COCCN2c2ccn3ncc1c3n2			Sprague-Dawley rat, male, adrenals	oral, 5 mg/kg/day, 4 weeks dosing, end of recovery	organ-to-body weight ratio	0.012 ± 0.001%
COc1ccccc1-n1ccnc1SCC(=O)Nc1cc(C(F)(F)F)ccc1Cl	Plasmodium falciparum	parasite growth, SYBR Green	3D7 wild type	72 h	EC50	429 ± 140 nM
CC(NC(=O)c1cccc(C(c2ccccc2)N2C(=N)NC(C)(C(C)C)CC2=O)c1)c1ccccc1 (centres unmarked)	Plasmodium falciparum	parasite growth	3D7		EC50	12.5 nM
CC1(C)Cc2sc(NC(=O)Cc3ccc(S(N)(=O)=O)cc3)c(C#N)c2CN1CC1CCCCC1	Dengue virus 2	viral replication	P15-S8 passaged with DMSO		EC50	8.89 nM and 7.67 nM
O=S(=O)(c1ccc(-c2ccc3ncnc(Nc4ccc(OCc5ccc(F)cc5)c(Cl)c4)c3c2)cc1)N1CCOCC1	Plasmodium falciparum	parasite growth, SYBR Green	D6	blood stage	EC50	170 nM
CCCN(Cc1nnc(-c2ccco2)o1)C(=O)C1CCCN(C(=O)c2ccc(Cl)cc2)C1 (centres unmarked)	Plasmodium falciparum	parasite growth, SYBR Green	3D7		EC50	98.3 nM
CC(C)(C)OC(=O)N1CCN(S(=O)(=O)c2ccc(-c3ccc4ncnc(Nc5ccc(OCc6cccc(F)c6)c(Cl)c5)c4c3)cc2)CC1	Plasmodium falciparum	parasite growth, SYBR Green	D6	blood stage	EC50	270 nM
CCN(CC)CCCC(C)Nc1ccnc2cc(Cl)ccc12 (centres unmarked)	Plasmodium falciparum	parasite growth	CAM3 REV		EC50	602 ± 187 nM
CN(C)c1cccc(-c2ccc3ncnc(Nc4ccc(OCc5cccc(F)c5)c(Cl)c4)c3c2)c1	Plasmodium falciparum	parasite growth, SYBR Green fluorescence	C235 (TM91C235), drug-resistant		EC50	550 nM
COc1ccccc1-c1n[nH]c2nc(N[C@H]3CC[C@H](NS(=O)(=O)CC(C)C)CC3)ncc12	Leishmania donovani	cell growth	promastigotes, LdBOB CRK6 overexpressing		EC50	1.34 ± 0.07 nM
C[C@H](NC(=O)Cc1cc(F)cc(F)c1)C(=O)N[C@@H]1C(=O)N(C)c2ccccc2-c2ccccc21	dengue virus 2	viral replication	Huh-7.5.1, luciferase reporter	48 h	EC50	55 nM
C[C@H]1Cc2c([nH]c3cc(Cl)c(F)cc23)[C@@]2(N1)C(=O)Nc1ccc(Cl)cc12	Plasmodium falciparum	parasite growth	W2Mef		EC50	2.1 ± 0.3 nM
C[C@H](NC(=O)[C@@H](O)c1cc(F)cc(F)c1)C(=O)N[C@@H]1C(=O)N(C)c2ccccc2-c2ccccc21	Dengue virus	viral replication, inhibitor, luciferase	NHDF	48 h	EC50	18.3 nM
OC(c1cc(C(F)(F)F)nc2c(C(F)(F)F)cccc12)C1CCCCN1 (centres unmarked)	Plasmodium falciparum	parasite growth	3D7		EC50	22.5 ± 5.6 nM
Cc1cc(Nc2ccc(Cl)cc2)n2nc(C(F)(F)F)nc2n1	Plasmodium falciparum	parasite growth, SYBR Green	3D7	72 h	EC50	> 12500 nM
Fc1cccc(COc2ccc(Nc3ncnc4ccc(-c5cccc(CN6CCOCC6)c5)cc34)cc2Cl)c1	Plasmodium falciparum	parasite growth, SYBR Green fluorescence	C235 (TM91C235), drug-resistant		EC50	290 nM
CCC1(CC)CC(=O)N(C2CCOc3ccc(C(=O)NC4CC(C)(C)Oc5ccccc54)cc32)C(=N)N1 (centres unmarked)	Plasmodium falciparum	parasite growth	Dd2-ATV		EC50	0.4 ± 0.1 nM
CN1CCN(c2cccc(-c3ccc4ncnc(Nc5ccc(OCc6cccc(F)c6)c(Cl)c5)c4c3)c2)CC1	Plasmodium falciparum	parasite growth, SYBR Green fluorescence	C235 (TM91C235), drug-resistant		EC50	110 nM
O=C(NCc1ccc(Cl)cn1)C(=O)C(Cc1ccccc1)NC(=O)C1CC(F)CN1C(=O)C(NC(=O)C1CCC(F)(F)CC1)C1CCCCC1 (centres unmarked)	HCoV-NL63	viral replication	LLC-MK2		EC50	2600 nM
O=S(=O)(c1ccc(-c2ccc3ncnc(Nc4ccc(OCc5cccc(F)c5)c(Cl)c4)c3c2)cc1)N1CCSCC1	Plasmodium falciparum	parasite growth, SYBR Green fluorescence	W2, drug-resistant		EC50	1600 nM
C[C@H](Oc1ccc(C(=O)c2ccc(F)cc2)cc1)C(=O)N1CCc2ccc(C(F)(F)F)cc21	Plasmodium falciparum	parasite growth, SYBR Green	3D7		EC50	1.83 nM
CN1CCN(S(=O)(=O)c2ccc(-c3ccc4ncnc(Nc5ccc(OCc6ccccc6)cc5)c4c3)cc2)CC1	Plasmodium falciparum	parasite growth, SYBR Green fluorescence	C235 (TM91C235), drug-resistant		EC50	36 nM
O=C1C(O)=C([C@H]2CC[C@H](c3ccc(Cl)cc3)CC2)C(=O)c2ccccc21	Plasmodium falciparum	parasite growth	Dd2-ATV		EC50	13.5 ± 1.6 nM
Cc1nc2ccc(-c3ccc(OC(F)(F)F)cc3)cc2c(O)c1C#N	Plasmodium falciparum	parasite growth, SYBR Green	3D7		EC50	9.82 nM

Repeated from above:
Structure (SMILES)	tested on	test	system	conditions	measurement	result
CC(C)(C)OC(=O)N1CCN(S(=O)(=O)c2ccc(-c3ccc4ncnc(Nc5ccc(OCc6cccc(F)c6)c(Cl)c5)c4c3)cc2)CC1	Plasmodium falciparum	parasite growth, SYBR Green	D6	blood stage	EC50	270 nM
CCN(CC)CCCC(C)Nc1ccnc2cc(Cl)ccc12 (centres unmarked)	Plasmodium falciparum	parasite growth	CAM3 REV		EC50	602 ± 187 nM
CN(C)c1cccc(-c2ccc3ncnc(Nc4ccc(OCc5cccc(F)c5)c(Cl)c4)c3c2)c1	Plasmodium falciparum	parasite growth, SYBR Green fluorescence	C235 (TM91C235), drug-resistant		EC50	550 nM
